Experimental data from different studies.
Compare with care: the assays were run in different laboratories. ± marks the error that the study gave.
EGFR L858R/T790M: Epidermal growth factor receptor (EGFR, Homo sapiens, UniProt P00533, L858R/T790M)
EGFR: Epidermal growth factor receptor (EGFR, Homo sapiens, UniProt P00533)
EGFR T790M: Epidermal growth factor receptor (EGFR, Homo sapiens, UniProt P00533, T790M)
EGFR L858R: Epidermal growth factor receptor (EGFR, Homo sapiens, UniProt P00533, L858R)
EGFR C797S/L858R/T790M: Epidermal growth factor receptor (EGFR, Homo sapiens, UniProt P00533, C797S/L858R/T790M)

| SMILES | target | test | conditions | scale | IC50 [nM] |
| --- | --- | --- | --- | --- | --- |
| CCCCCCCCCCOc1c(O)cc(C(=O)OC2Cc3c(O)cc(O)cc3OC2c2cc(O)c(O)c(O)c2)cc1O (stereo not drawn) | EGFR L858R/T790M | kinase activity, inhibitor, Z′-LYTE | with: 10 µM ATP |  | 103.8 ± 0.08 |
| Cc1ccc(S(=O)(=O)c2c(-c3ccccc3)c3c(C)c4cc(F)ccc4n3c3ccccc23)cc1 | EGFR | enzyme activity, inhibitor, ADP detection |  |  | 380 |
| CCOC(=O)/C(=N\Nc1ccc(S(=O)(=O)Nc2ncccn2)cc1)C(=O)c1ccccc1 | EGFR T790M | enzyme activity, inhibitor, TR-FRET |  |  | 115 |
| COc1ccc(C=C2SC(N3N=C(c4cccs4)CC3c3ccc(F)cc3)=NC2=O)cc1 (stereo not drawn) | EGFR | enzyme activity, inhibitor |  |  | 305 |
| O=C(O[C@@H]1Cc2c(O)cc(O)cc2O[C@@H]1c1cc(O)c(O)c(O)c1)c1cc(O)c(O)c(O)c1 | EGFR | kinase activity, inhibitor, Z′-LYTE | with: 10 µM ATP |  | 115.2 ± 0.07 |
| O=C(Nc1nnc2c1c(-c1ccc(Cl)cc1)nc1sc(=Cc3ccco3)c(=O)n12)c1ccccc1 (mixture of isomers) | EGFR | enzyme activity, inhibitor |  |  | 54 |
| Cc1ccc(S(=O)(=O)c2c(-c3ccccc3)c3c(C)c4ccc(C)cc4n3c3ccccc23)cc1 | EGFR | enzyme activity, inhibitor, ADP detection |  |  | 480 |
| N=c1c2sc3sc4c(=N)n(-c5ccccc5)c(=S)[nH]c4c3c2[nH]c(=S)n1-c1ccccc1 | EGFR T790M | kinase activity, HTRF |  |  | 17300 ± 690 |
| CCCCCCCCCCCCOc1c(O)cc(C(=O)OC2Cc3c(O)cc(O)cc3OC2c2cc(O)c(O)c(O)c2)cc1O (stereo not drawn) | EGFR | kinase activity, inhibitor, Z′-LYTE | with: 10 µM ATP |  | 21.46 ± 0.05 |
| C=CC(=O)N1CCC[C@@H](n2nc(-c3ccccc3)c3c(N)ncnc32)C1 | EGFR L858R | enzyme activity, inhibitor | with preincubation |  | 11 |
| O=C(Nc1ccc(-c2noc(C3CC3)n2)c(Cl)c1)c1cccs1 | EGFR | kinase activity, inhibitor, luminescence |  | limit value | < 10000 |
| COc1ccc(NC(=O)N/N=C2\CC3(CCN(C)CC3)Oc3ccccc32)cc1 | EGFR | enzyme activity, inhibitor |  |  | 77 |
| COCC1CN(C2CCN(c3cc(OC)c(Nc4ncc(Br)c(Nc5ccc6c(c5P(C)(C)=O)OCCO6)n4)cc3C)CC2)C1 | EGFR L858R/T790M | enzyme activity, inhibitor, TR-FRET |  |  | < 1.5 |
| CN1CCN(c2ccc(Nc3ncc(Cl)c(Nc4ccccc4NS(C)(=O)=O)n3)cc2)CC1 | EGFR C797S/L858R/T790M | enzyme activity, inhibitor, ELISA |  |  | 4.83 |
| C=CC(=O)N1CCC[C@@H](n2nc(-c3cnc4[nH]ccc4c3)c3c(N)ncnc32)C1 | EGFR | cell-free assay |  |  | 13 |
| CC[C@H](C(=O)N1CCCC[C@@H]1C(=O)O[C@H](CCc1ccc(OC)c(OC)c1)c1cccc(OCC(=O)NCCC(=O)N2CCN(CCCOc3cc4c(Nc5ccc(F)c(Cl)c5)ncnc4cc3OC)CC2)c1)c1cc(OC)c(OC)c(OC)c1 | EGFR | enzyme activity, inhibitor, TR-FRET |  |  | 0.29 |
| C=CC(=O)Nc1cc(Nc2nccc(-c3c(-c4cccc(F)c4)n(C)c4ccccc34)n2)c(OC)cc1N(C)CCN(C)C | EGFR L858R/T790M | enzyme activity, inhibitor |  |  | 5 |
| Nc1ncnc2c1sc1sc3c(N)ncnc3c12 | EGFR | enzyme activity, inhibitor, TR-FRET |  |  | 280 |
| N#Cc1c(N2CCN(c3ncccn3)CC2)cc(-c2cc3ccccc3o2)c2c1CCCC2 | EGFR C797S/L858R/T790M | enzyme activity, inhibitor |  |  | 3260 |
| N#Cc1ccc(O)c(-c2nc(NCCN3CCNCC3)c3ccccc3n2)c1 | EGFR C797S/L858R/T790M | enzyme activity, inhibitor, ATP luminescence |  |  | 736 |
| CSC(=S)N/N=C(\C)c1ccc(S(=O)(=O)N2CCC(C)CC2)cc1 | EGFR | enzyme activity, inhibitor |  |  | 170 |
| C#Cc1cccc(Nc2ncnc3cc(OC)c(OCCCN4CCOCC4)cc23)c1 | EGFR L858R | enzyme activity, inhibitor | 30 min, L858R mutant, with: ATP 80.8 µM |  | 1.1 |
| Cc1nc(-c2ccc(NC(=O)c3cccs3)cc2Cl)no1 | EGFR | enzyme activity, Kinase-Glo luminescence |  |  | 4780 ± 1230 |
| O=c1[nH]c2ccccc2nc1/C=C/c1ccccc1Br | EGFR | enzyme activity, inhibitor, TR-FRET |  |  | > 100000 |
